Assay results collected from several papers.
Compare with care: the assays were run in different laboratories. ± gives the spread as reported.
cyp121: Mycocyclosin synthase (cyp121, Mycobacterium tuberculosis, UniProt P9WPP7)

Amino acid sequences for entries named in this document (tags omitted).
UniProt P9WPP7, whole entry: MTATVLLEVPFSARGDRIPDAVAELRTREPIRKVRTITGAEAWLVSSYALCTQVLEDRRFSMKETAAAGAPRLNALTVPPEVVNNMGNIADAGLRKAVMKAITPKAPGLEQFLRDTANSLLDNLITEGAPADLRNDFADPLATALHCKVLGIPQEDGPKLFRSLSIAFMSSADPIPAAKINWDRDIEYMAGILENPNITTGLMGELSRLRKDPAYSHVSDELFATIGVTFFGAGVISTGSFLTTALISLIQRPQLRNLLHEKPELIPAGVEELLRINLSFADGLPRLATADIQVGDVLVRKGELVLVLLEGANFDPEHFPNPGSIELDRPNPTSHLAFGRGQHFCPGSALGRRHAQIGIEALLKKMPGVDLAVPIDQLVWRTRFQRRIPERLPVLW

With `COC(C)(C)Cn1nc(-c2ccc3cc(OC4CC4)ccc3c2)c2c(N)ncnc21` the CC50 was over 80 µM (HepG2; cytotoxicity).
`NC(=O)CCOc1c(SSc2cnn(-c3ccccc3)c(=O)c2OCCC(N)=O)cnn(-c2ccccc2)c1=O` has a CC50 of over 100 µM (HeLa).
For `CNCCNC(=O)c1cc2c([nH]c3ccccc32)c(-c2cc(Cl)c(Cl)c(Cl)c2)n1`, the CC50 was 6.59 µM (HepG2; cytotoxicity).
`O=c1c(OCCO)c(SSc2cnn(-c3ccccc3)c(=O)c2OCCO)cnn1-c1ccccc1` gave a CC50 of over 100 µM (HeLa).
With `CS(=O)(=O)Cc1onc(-c2cccc(Cl)c2)c1-c1ccnc(N[C@@H]2CCN(Cc3nccs3)C2)n1` the viability was 93% (HepG2; 20 µM, 48 h).
The Kd of `c1ccc(-c2ccc(C(c3ccccc3)n3ccnc3)cc2)cc1` (centres unmarked) is reported as 1.4 ± 0.22 µM (cyp121; binding).
With `CCOc1ccc2cc(-c3nn(CC4CCNCC4)c4ncnc(N)c34)ccc2c1` the GI50 was over 30 µM (HepG2; cell growth, Alamar Blue; 48 or 72 h, highest tested 30 µM).
For `O=C(NCCNCCO)c1cc2c([nH]c3ccccc32)c(-c2cc(Cl)c(Cl)c(Cl)c2)n1`, the CC50 was 4.54 µM (HepG2; cytotoxicity).
For `COc1cccc(-c2cc(Nc3c(Nc4ccc(C(F)(F)F)cc4)c(=O)c3=O)ccc2OC)c1`, the efflux ratio was 0.152 ± 0.03 (Caco-2).
`CCOc1ccc2cc(-c3nn(CC4CCNCC4)c4ncnc(N)c34)ccc2n1` has a GI50 of over 30 µM (HepG2; cell growth, Alamar Blue; 48 or 72 h, highest tested 30 µM).
The Kd of `CCC(c1ccc(-c2ccc(NC(C)=O)cc2)cc1)n1ccnc1` (centres unmarked) is reported as 2 ± 0.44 µM (cyp121; binding).
The CC50 of `COC(C)(C)Cn1cc(-c2ccc3cc(OC4CC4)ccc3c2)c2c(N)ncnc21` is reported as 43.9 µM (HepG2; cytotoxicity).
The CC50 of `O=C(NCCNCCO)c1cc2c([nH]c3ccccc32)c(-c2ccc(Cl)c(Cl)c2)n1` is reported as 7.27 µM (HepG2; cytotoxicity).
The CC50 of `O=C(O)CCOc1c(SSc2cnn(-c3ccccc3)c(=O)c2OCCC(=O)O)cnn(-c2ccccc2)c1=O` is reported as over 100 µM (HeLa).
